Measurements from different studies.
Lines come from different studies, so protocols differ.
Target: Ephrin type-B receptor 1 (EPHB1, Homo sapiens, UniProt P54762)

Structure (SMILES)	test	setting	how to read	quantity	value
CCn1cc(C(=O)O)c(=O)c2c(N)c(F)c(NC3CCCCC3)cc21	kinase activity	0.1 µM, with: ATP at Km		inhibition	-3.8%
NC(=O)C[C@H]1CCc2sc3ncnc(O[C@H]4CC[C@H](N5CCOCC5)CC4)c3c21	enzyme activity, inhibitor	10 µM		inhibition	12%
Cc1cccc(O[C@H]2CCC[C@@H](C(C)CNCc3ccncc3)C2)c1 (relative stereo)	cell-free assay	1 µM		inhibition	-2%
Nc1ncc(-c2cc(-c3cnn(CC(F)(F)F)c3)ncc2F)nc1C(=O)NC1CNCC(F)C1 (centres unmarked)	enzyme activity	1 µM	baseline: DMSO control	remaining activity	96.3%
CCN1CCN(Cc2ccc(NC(=O)c3ccc(C)c(NC(=O)c4cncc(-c5cccs5)c4)c3)cc2C(F)(F)F)CC1	binding, competition with immobilised ligand	1 µM		remaining binding	3.6%
Nc1ncc2c(n1)-c1c([nH]c3ccc(C4=CCOCC4)cc13)CCC2	binding, competition with immobilised ligand	1 µM		remaining binding	100%
C=CC(=O)Nc1cccc(-c2cnc3[nH]cc(C(=O)NC(C)(C)C)c3n2)c1	enzyme activity, inhibitor	0.1 µM		inhibition	-2%
COc1cc(Nc2nccc(-c3cnn4nc(OC)ccc34)n2)cc(C(F)(F)F)c1	binding, competition with immobilised ligand	1 µM		remaining binding	100%
C=CC(=O)N1Cc2nc(-c3cc(-c4cc(Cl)cnc4Cl)c(F)cc3F)n(-c3ccncn3)c2C1	cell-free assay	1 µM		inhibition	2.1%
O=C=[N][Ru-4]123([n]4c5ccc(O)cc5c5c6c(c7cc(F)c[n+]1c7c54)C(=O)NC6=O)[S+]1CC[S+]2CC[S+]3CC1 (centres unmarked)	enzyme activity	100 nM, human enzyme, with: 10 µM ATP	baseline: untreated	remaining activity	146%
CCN1CCN(Cc2ccc(C(=O)Nc3ccc(C)c(NCc4cnc5[nH]ccc5c4OC)c3)cc2C(F)(F)F)CC1	binding, competition with immobilised ligand	1 µM		remaining binding	10%
Cc1cnc2nc1Nc1cccc(c1)COC/C=C/COCc1cc(ccc1OCCN1CCOCC1)N2	binding	0.1 µM		remaining binding	80%
CNC(=O)C1CCN(c2cc(C)c(F)cc2NC(=O)c2ccc(-c3cc(O)ccc3C)c(C)c2)CC1	binding, competition with immobilised ligand	1 µM		remaining binding	4.3%
CC(C)=CC1OC(C)(C)C2C=C3C(=O)C(Cl)=CC(O)C3C3C(O)C4OC4C(=O)C132 (centres unmarked)	cell-free assay, competition with immobilised ligand	10 µM		remaining binding	81%

For quick reference, copied from above:
Structure (SMILES)	test	setting	how to read	quantity	value
Cc1cccc(O[C@H]2CCC[C@@H](C(C)CNCc3ccncc3)C2)c1 (relative stereo)	cell-free assay	1 µM		inhibition	-2%
